Published values collected from several papers.
Each numbered part is a random draw from the data of one study; scales do not carry over between parts.

Block 1
Target: Ras GTPase-activating protein-binding protein 1, full length (G3BP1, Homo sapiens, UniProt Q13283)
UniProt Q13283, sequence (whole entry, looked up): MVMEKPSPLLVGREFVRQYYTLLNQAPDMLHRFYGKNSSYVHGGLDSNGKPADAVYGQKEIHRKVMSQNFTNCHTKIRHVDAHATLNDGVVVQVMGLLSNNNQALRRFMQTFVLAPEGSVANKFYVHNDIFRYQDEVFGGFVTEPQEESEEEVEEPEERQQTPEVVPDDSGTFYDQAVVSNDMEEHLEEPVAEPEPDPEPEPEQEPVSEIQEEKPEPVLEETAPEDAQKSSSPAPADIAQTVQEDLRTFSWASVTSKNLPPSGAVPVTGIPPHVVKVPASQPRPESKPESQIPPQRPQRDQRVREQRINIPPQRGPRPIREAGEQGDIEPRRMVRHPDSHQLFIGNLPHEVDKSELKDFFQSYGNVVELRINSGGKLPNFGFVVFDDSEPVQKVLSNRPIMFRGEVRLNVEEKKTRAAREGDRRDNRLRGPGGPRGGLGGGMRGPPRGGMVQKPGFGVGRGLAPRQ
Technique: RNA Bind-n-Seq
Molecule type: RNA
Matrix: in vitro
Tested at: 200 nM
Notes: whole 134-nt RNA, ends assumed
Together with: 150 mM LiCl
Reference: input library
Reading: higher = stronger binding
Measurement: log2 enrichment
All molecules: 7-deaza-guanosine replaces G
Shared flanks, not repeated: GGGAGUUCUACAGUCCGACGAUC … UGGAAUUCUCGGGUGUCAAGG
UCCUGUGCUACACAUCGUAUGUACCGAAUCGGGUUUUUGGGUUUUUGGGUUUUUUUGGGAAAGUAUUAUGUUACGCCGUUCGGAUCUGCA: 0.556
CCUGUGCUACACAUCGUAUGUACCGAAUCGGGGCCCCCCGGGGCCCCCCGGGCCCCCCGGGAAAGUAUUAUGUUACGCCGUUCGGAUCUG: -1.76
AGUCCUGUGCUACACAUCGUAUGUACCGAAUCGGAAAAAGGUUUUUUUGGAAAAAGGAAAGUAUUAUGUUACGCCGUUCGGAUCUGCACU: -2.59
CCUCAAGUCCUGUGCUACACAUCGUAUGUACCGAAUCGGGAGGGAGGGAGGGGAAAGUAUUAUGUUACGCCGUUCGGAUCUGCACUUCCA: -0.419
UUGAUUGAUAUUACAGGCAAGAACCAGGAUGAAUGUGUGAUUGCUUUGCAUGACUGCAAUGGAGAUGUCAACAGAGCUAUCAAUGUUCUU: -3.84
ACCAUGCAGGUGGGCAUCUUUGGGAAGUGGGGCAAGGGGGGGAUAGAAAGGGGGGUAACACUUUGGGAACAGGUGGUCCCAGGUCGUUUC: 0.326
CACAGACAACACGCACCCACACAGACACAGAGGGAAGGGGUUGGGAUGAGGACAGGGUGCACAGCAGGGCGGGGUAGGACCCCAGCCCCU: 0.261
AAGUCCUGUGCUACACAUCGUAUGUACCGAAUCGGGAAAAAGGGAAAGGGUUUGGGAAAGUAUUAUGUUACGCCGUUCGGAUCUGCACUU: -1.84
UCCUGUGCUACACAUCGUAUGUACCGAAUCGGGUUUUUUGGUUUUUUGGGGUUUUUUGGGAAAGUAUUAUGUUACGCCGUUCGGAUCUGC: 0.336
UGGGAGGUGGAUUUUGUUUAUUUUUUUAGCUCAUUUCCAGGGGUGGGAAUUUUUUUUUAAUAUGUGUCAUGAAUAAAGUUGUUUUUAAAA: 0.143
CUCAAGUCCUGUGCUACACAUCGUAUGUACCGAAUCGUGUGUGUGUGUGUGUGUAAAGUAUUAUGUUACGCCGUUCGGAUCUGCACUUCC: -0.531

Block 2
Target: TAR DNA-binding protein 43, full length, His tag (TARDBP, Homo sapiens, UniProt Q13148, residues 1-414)
Technique: RNA Bind-n-Seq
Molecule type: RNA
Matrix: in vitro
Tested at: 20 nM
Notes: 6-mer, flanks averaged, single round
Together with: 150 mM LiCl
Reference: input library
Reading: higher = stronger binding
Measurement: 6-mer enrichment (R)
GCUUCU: 0.897
UUGAGG: 1.15
GUGUCU: 1.14
CAGCCG: 0.872
GCGAAG: 0.975
GAAUGC: 1.06
AACACA: 0.84
CUGCGA: 0.86
UACCCC: 1.12
AGUUUG: 1.23
CACGAA: 0.826
CCACGU: 0.92
GAAAAG: 0.921
ACAUAA: 0.871
CUCAAA: 0.824
GGUUAC: 0.932
AUAUAA: 0.988
ACUUCC: 0.872

Block 3
Target: RNA binding protein fox-1 homolog 2, RRM domain, GST-SBP tag (RBFOX2, Homo sapiens, UniProt O43251-10, residues 100-194)
Technique: RNA Bind-n-Seq
Molecule type: RNA
Matrix: in vitro
Tested at: 365 nM
Notes: natural RNA segment, single round, ends assumed
Reference: no-protein control
Reading: higher = stronger binding
Measurement: RBNS enrichment (R)
Shared flanks, not repeated: GGGAGUUCUACAGUCCGACGAUC … UGGAAUUCUCGGGUGCCAA
Residues (chain): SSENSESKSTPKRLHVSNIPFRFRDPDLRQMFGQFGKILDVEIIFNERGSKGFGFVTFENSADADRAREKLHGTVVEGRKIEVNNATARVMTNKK
CUUCCUGUUUUUAUCUAAUAAAAUGCUAACCUGCCCUGAGUUUCCAUUACUGUGGGUGGGGUUCCCCUGGGCCAAACAGUGAUUUGUCUCCCUCAAUGUGUACACCGCUC: 0.38
AUCUGGGUGUCCUCAGCCCCUGUGGGGCAGCCAAGUUCCUGAUAGCACUUGUGCCUCAGCCCCUCACCUGGCCACCUGCCAGGGCACCUGCAACCCUAGCAAUACCAUGC: 0.211
UGCCUCAUUGGGGAAGUUGGCCAGCUGGACUUCAGAGAGCUAAGACACAGCAUUUUCAAAGAUAGCCUGGGAGCACUGUCUCUGACCACCUGUCUUCCUCUGCACCGUGC: 0.579
UUACCUGAGAGUUGUCUUGUUUUCUGGGCUGUUUUUAACUGAGGAAAAAAAAAAUGCUUUCCUGCCGGGGGGCAGGGGAGACGGAGAAACCCAUGUGCGUUUCCCAUGUG: 1.75
GAUCUACCAGCAAAUGAGGGCGAACAGCUAAUCCACGUGGCUUUGUCCCAGACUUCCUUUGUCUUCAACAACCUUCUGCAAGAAAACCAAGGGCCUGAAUUUUAACUUCC: 0.587
UUUAAUAGCCCUUUUUAAUUAGAAAUUAAAACAGUUAAUUUAAUUAAAGAGUAGGGUUUUUUUCAGUAUUCUUGGUUAAUAUUUAAUUUCAACUAUUUAUGAGAUGUAUC: 0.67
UCUUCUGUAGCUUUGCCUCUAUCAGGGCUGGAGUGGUGCAGCCCCUGGCAUCUCAGACAUGGUUCCUGCCUCACUUGUGGGAGCUGGACCAGCCUGGGUUUCAUCUCCCA: 0.501
CAGUACCAGAGCAAUCCAGAUGCUGCUGUGCAGUGACGUGGCCUGCGGCCGGGCUGCCUAUUGCUGCCAGGAUACCUGCCCCAGCGCGGCUCGGCCGCCACCCAGGACGC: 0.258
AAGAAAAAUGGAAGGUAAGUUGAGUUGCUCCUUUCCCAGUUCCUAGGAAUAGGCAAGAAGCCAGUCUCCCCAGGUUGGAAGAGGAUCAUGGGCCUGGCCUAGCUCCUCCG: 0.253
GUUCCCCAGGGGAUCUCUGGGAAAGACACUACCGCAGCCACCGGACUCUUGGCGGAUCGGUCCAGUGGGUAGAGGGUUUGAUCAACAGAGCCUCACCCUCUCCACCUUUC: 0.267
CAUCAUCAAGAACAACCUGAAGGACUGCGGCCUCUUCUGGGGGCAGCGGGGCCUGGCGGGAUGGGCCACCGCCGACUUUGUACCCCCCAACCCCUGAGGAAGAUGGGGGC: 0.26
CUGUCUCCUCAGUGAACCUCCUAGUUUCUUUAUAGACUUAACCUUCCCUUCAGUUAAAGGGUUUCUUUUUCAGAGGGCCUAGACUGUGCUGACCUUGUGUGACCAGAGAU: 0.39

Block 4
Target: Histone acetyltransferase KAT6A, winged helix 1, GST fusion (KAT6A, Homo sapiens, UniProt Q92794, residues 1-85)
Technique: protein binding microarray
Molecule type: double-stranded DNA, one strand shown
Matrix: in vitro
Tested at: not given
Notes: 8-mer, flanks averaged, mean of 2 arrays, mostly near background
Reference: not given
Reading: higher = stronger binding
Measurement: E-score
Target sequence (chain): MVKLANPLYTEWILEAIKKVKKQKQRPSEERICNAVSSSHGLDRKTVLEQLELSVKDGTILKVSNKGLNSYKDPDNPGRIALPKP
GCTACGCA: 0.176
GATATTAC: 0.0628
GGAATGAA: 0.0489
AATCAGCA: -0.25
CGTAAGAC: 0.0993
ACCCACAC: 0.0207
ATCTCGGG: 0.0566
ACCTAGTA: -0.0367
AAGGGTAA: -0.113
AACCTGCA: -0.164
AACGGTAC: 0.188
GGCTCGGA: 0.201
CCACGCCG: 0.35
CCTACTAG: -0.159
AGCGATCA: 0.0582
GGGGAAAA: -0.0844
CTCTTGTA: -0.133
CGACTTGA: -0.118
AGCACCTG: -0.278
AGAAAGGA: -0.113

For quick reference, copied from above (block 4):
CCTACTAG: -0.159
AGCGATCA: 0.0582
GGGGAAAA: -0.0844
CTCTTGTA: -0.133
CGACTTGA: -0.118
AGCACCTG: -0.278
